{"data": "Measurements pooled from the literature", "note": "Protocols differ between the studies behind these lines. ± gives the spread as reported."}
{"Compound": "CCOC(=O)C1=C[C@@H](OC(CC)CC)[C@H](NC(C)=O)[C@@H](N)C1", "assay": "non-compartmental analysis", "system": "Sprague-Dawley rats, male, plasma", "setting": "oral, 30 mg/kg, alone", "measurement": "half-life", "result": "234 ± 102 min"}
{"Compound": "COC(=O)[C@@H]1[C@H]2CC[C@@H](C[C@@H]1O)N2C", "assay": "LC-MS/MS", "system": "Sprague-Dawley rat, whole blood", "setting": "intraperitoneal, 20 mg/kg of cocaine", "measurement": "half-life", "result": "141 ± 7.12 min"}
{"Compound": "Nc1nc(=S)c2[nH]cnc2[nH]1", "target or system": "human coronavirus OC43", "assay": "virus-induced cell killing", "system": "MRC-5", "setting": "screen", "measurement": "maximum inhibition", "result": "56.9%"}
{"Compound": "CC(=O)Oc1ccc2c3c1O[C@H]1[C@@H](OC(C)=O)C=C[C@H]4[C@@H](C2)N(C)CC[C@@]341", "assay": "LC-MS/MS", "system": "Sprague-Dawley rat, male, whole blood", "setting": "intraperitoneal, 10 mg/kg", "measurement": "half-life", "result": "4.21 ± 0.85 min"}
{"Compound": "O=c1c(O)c(-c2ccc(O)c(O)c2)oc2cc(O)cc(O)c12", "target or system": "human coronavirus OC43", "assay": "virus-induced cell killing", "system": "MRC-5", "setting": "screen", "measurement": "maximum inhibition", "result": "1.65%"}
{"Compound": "[Se]", "system": "rat, plasma", "setting": "subcutaneous, 0.2 mg/kg, sodium selenate", "measurement": "half-life", "result": "285 min"}
{"Compound": "Cc1ccc(S(=O)(=O)Nc2c(N[C@H]3CC[C@H](NC(=O)Nc4ccc(F)c(Cl)c4)CC3)c(=O)c2=O)cc1", "system": "rat, plasma", "setting": "oral, 20 mg/kg", "measurement": "half-life", "result": "118 min"}
{"Compound": "Cn1cccc1-c1cccnc1", "assay": "one-compartment model", "system": "rat, serum", "setting": "iv, 1.0 mg/kg", "measurement": "half-life", "result": "45 min"}
{"Compound": "COC(=O)[C@H]1[C@@H](OC(=O)c2ccccc2)C[C@@H]2CC[C@H]1N2", "assay": "LC-MS/MS", "system": "Sprague-Dawley rat, whole blood", "setting": "intraperitoneal, 20 mg/kg of cocaine", "measurement": "half-life", "result": "36.6 ± 0.86 min"}
{"Compound": "COC[C@]12CN(C)[C@@H]3[C@@H]4[C@H](OC)[C@H]1[C@@]3([C@@H](OC)C[C@H]2O)[C@@H]1C[C@@]2(O)[C@H](OC(=O)c3ccccc3)[C@@H]1[C@]4(OC(C)=O)[C@@H](O)[C@@H]2OC", "system": "Sprague-Dawley rat, plasma", "setting": "oral, dose not given, with H in PCW extract", "measurement": "half-life", "result": "239 ± 85 min"}
{"Compound": "COc1ccc2c(c1)CN[C@@H](C(=O)N[C@H](CN1CC[C@@](C)(c3cccc(O)c3)[C@@H](C)C1)C(C)C)C2", "system": "Sprague-Dawley rat, plasma", "setting": "intraperitoneal, 5 mg/kg", "measurement": "half-life", "result": "2110 min"}
{"Compound": "CC(C)C[C@@H]1NC(=O)[C@H](CC(=O)O)NC(=O)[C@H](Cc2ccccc2)NC(=O)[C@H](Cc2c[nH]cn2)NC(=O)[C@H]([C@@H](C)O)NC(=O)[C@H](Cc2ccccc2)NC(=O)[C@@H](NC(=O)[C@H](C)NC(=O)COCCOCCNC(=O)COCCOCCNC(=O)CC[C@H](NC(=O)CCCCCCCCCCCCCCCCC(=O)O)C(=O)O)CSSC[C@@H](C(=O)O)NC(=O)[C@H](Cc2ccccc2)NC(=O)[C@@H]2CCCN2C(=O)[C@H](Cc2c[nH]c3ccccc23)NC(=O)[C@H](CC(C)C)NC1=O", "system": "Sprague-Dawley rat, male, plasma", "setting": "intravenous", "measurement": "half-life", "result": "250 min"}
{"Compound": "COC[C@@]12CC[C@H](OC)[C@]34C(C([C@H](OC)[C@H]13)[C@]1(OC(C)=O)[C@H]3[C@@H](OC(=O)c5ccccc5)[C@](O)(C[C@H]34)[C@@H](OC)[C@@H]1O)N(C)C2", "system": "Sprague-Dawley rat, plasma", "setting": "oral, dose not given, with H in PCW extract", "measurement": "half-life", "result": "920 ± 509 min"}
{"Compound": "CCCCCCCC(=O)N[C@@H](CCCCN)C(=O)N[C@@H](CCCCN)C(=O)N[C@@H](C)C(=O)N[C@@H](CC(C)C)C(=O)N[C@@H](CCCCN)C(=O)N[C@@H](CC(C)C)C(=O)N[C@@H](C)C(=O)N[C@@H](CCCCN)C(=O)N[C@@H](CCCCN)C(=O)N1CCC[C@H]1C(=O)N[C@@H](CC(C)C)C(=O)N[C@@H](CCCCN)C(=O)N[C@@H](CC(C)C)C(=O)N[C@@H](CC(C)C)C(=O)N[C@@H](CCCCN)C(N)=O", "system": "Sprague-Dawley rat, male, whole blood", "setting": "intravenous infusion, 3 mg/kg, 1 h infusion", "measurement": "half-life", "result": "12 ± 6 min"}
{"Compound": "CC(=O)O[C@H]1C=C[C@H]2[C@H]3Cc4ccc(O)c5c4[C@@]2(CCN3C)[C@H]1O5", "assay": "LC-MS/MS", "system": "male Sprague-Dawley rat, whole blood", "setting": "intraperitoneal, 10 mg/kg of heroin", "measurement": "half-life", "result": "25.6 ± 1.4 min"}
{"Compound": "CC(C)[C@@H](CN1CC[C@@](C)(c2cccc(O)c2)[C@@H](C)C1)NC(=O)[C@@H]1Cc2ccc(O)cc2CN1C", "system": "rat, plasma", "setting": "intraperitoneal, 5 mg/kg", "measurement": "half-life", "result": "1420 min"}
{"Compound": "CC(C)(C)[C@H](NC(=O)[C@H](CCONC(=N)N)NC(=O)Cc1ccc(CNC(=N)N)cc1)C(=O)N[C@@H](CCONC(=N)N)C(=O)NCc1ccc(C(=N)N)cc1", "system": "Sprague Dawley rat, male, plasma", "setting": "intraperitoneal, 2.5 mg/kg", "measurement": "half-life", "result": "480 min"}
{"Compound": "O=[Se](=O)([O-])[O-].[Na+].[Na+]", "system": "rat", "setting": "subcutaneous, 0.2 mg/kg", "measurement": "half-life", "result": "309 min"}
{"Compound": "CC(C)[C@@H](CN1CC[C@@](C)(c2cccc(O)c2)[C@@H](C)C1)NC(=O)[C@@]1(C)Cc2ccc(O)cc2CN1", "system": "rat, plasma", "setting": "intraperitoneal, 5 mg/kg", "measurement": "half-life", "result": "1760 min"}
{"Compound": "CC(=O)N[C@@H](C)C(=O)N[C@H]1CSSC[C@@H](C(=O)O)NC(=O)[C@H](Cc2ccccc2)NC(=O)[C@@H]2CCCN2C(=O)[C@H](Cc2c[nH]c3ccccc23)NC(=O)[C@H](CC(C)C)NC(=O)[C@H](CC(C)C)NC(=O)[C@H](CC(=O)O)NC(=O)[C@H](Cc2ccccc2)NC(=O)[C@H](Cc2c[nH]cn2)NC(=O)[C@H]([C@@H](C)O)NC(=O)[C@H](Cc2ccccc2)NC1=O", "system": "Sprague-Dawley rat, male, plasma", "setting": "intravenous", "measurement": "half-life", "result": "1.8 min"}
{"Compound": "CCN1C[C@]2(COC)[C@H](O)C[C@H](OC)[C@@]34[C@@H]5C[C@@]6(O)[C@H](OC(=O)c7ccccc7)[C@@H]5[C@@](OC(C)=O)([C@@H]([C@H](OC)[C@H]23)[C@@H]14)[C@@H](O)[C@@H]6OC", "system": "Sprague-Dawley rat, plasma", "setting": "oral, dose not given, in PCW extract", "measurement": "half-life", "result": "119 ± 11.2 min"}
{"Compound": "COc1cccc([C@]2(C)CCN(C[C@@H](NC(=O)[C@H]3Cc4ccc(O)cc4CN3)C(C)C)C[C@@H]2C)c1", "system": "rat, plasma", "setting": "intraperitoneal, 5 mg/kg", "measurement": "half-life", "result": "2480 min"}
{"note": "Excerpt of the above:"}
{"Compound": "CC(C)[C@@H](CN1CC[C@@](C)(c2cccc(O)c2)[C@@H](C)C1)NC(=O)[C@@H]1Cc2ccc(O)cc2CN1C", "system": "rat, plasma", "setting": "intraperitoneal, 5 mg/kg", "measurement": "half-life", "result": "1420 min"}
{"Compound": "O=c1c(O)c(-c2ccc(O)c(O)c2)oc2cc(O)cc(O)c12", "target or system": "human coronavirus OC43", "assay": "virus-induced cell killing", "system": "MRC-5", "setting": "screen", "measurement": "maximum inhibition", "result": "1.65%"}
{"Compound": "CC(C)C[C@@H]1NC(=O)[C@H](CC(=O)O)NC(=O)[C@H](Cc2ccccc2)NC(=O)[C@H](Cc2c[nH]cn2)NC(=O)[C@H]([C@@H](C)O)NC(=O)[C@H](Cc2ccccc2)NC(=O)[C@@H](NC(=O)[C@H](C)NC(=O)COCCOCCNC(=O)COCCOCCNC(=O)CC[C@H](NC(=O)CCCCCCCCCCCCCCCCC(=O)O)C(=O)O)CSSC[C@@H](C(=O)O)NC(=O)[C@H](Cc2ccccc2)NC(=O)[C@@H]2CCCN2C(=O)[C@H](Cc2c[nH]c3ccccc23)NC(=O)[C@H](CC(C)C)NC1=O", "system": "Sprague-Dawley rat, male, plasma", "setting": "intravenous", "measurement": "half-life", "result": "250 min"}
